Assay results from different studies.
A part holds a random share of what one study measured. Changes are numbered by the printed parent chain.

Block 1 — target: JUNB, bZIP domain (human); method: DHFR protein complementation; sample: yeast; reference: wild-type JUN-FOS pair; direction: higher = stronger binding
Setting: single substitutions, most at no-binding floor
Starting sequence: JUN, bZIP domain (human); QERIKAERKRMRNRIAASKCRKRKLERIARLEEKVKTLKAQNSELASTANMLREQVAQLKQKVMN; partner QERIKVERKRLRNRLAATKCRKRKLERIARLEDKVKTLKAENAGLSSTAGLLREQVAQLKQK
`E44A` gave a binding fitness of -1.2 natural log.
For `A49R`, the binding fitness was -1.37 natural log.
`Q41W` gave a binding fitness of -1.64 natural log.
For `T37A`, the binding fitness was -0.907 natural log.
`A46Y` has a binding fitness of -1.22 natural log.
The binding fitness of `T48N` is reported as -1.38 natural log.
`T37S` has a binding fitness of -1.21 natural log.
For `L31E`, the binding fitness was -1.62 natural log.
`I28A` gave a binding fitness of -1.42 natural log.
With `A29S` the binding fitness was -1.21 natural log.
The binding fitness of `K39C` is reported as -1.39 natural log.
The binding fitness of `T48K` is reported as -1.19 natural log.

Block 2 — method: universal PBM; molecule type: double-stranded DNA, one strand shown; sample: in vitro; concentration: not given; direction: higher = stronger binding
Target: Sal-like protein 4, full length isoform B (SALL4, Homo sapiens, UniProt Q9UJQ4-2, residues 1-616)
Setting: 8-mer, flanks averaged, mean of replicates
For `ACTTAAGC`, the E-score was 0.0304.
`ACCCATTC` has an E-score of -0.0202.
`ATTTTGAA` has an E-score of 0.346.
With `ACCGCGAT` the E-score was -0.0335.
For `ACGCTGGA`, the E-score was -0.174.
The E-score of `ACTGCCAA` is reported as -0.0292.
The E-score of `CACGCTAA` is reported as 0.0481.
For `GGCATTCA`, the E-score was -0.00268.
`ACGGGTTG` has an E-score of -0.194.
For `ATCGTCAT`, the E-score was 0.256.
For `CTCCCACA`, the E-score was -0.0948.
`ACGCCAAG` gave an E-score of -0.155.
The E-score of `ACCCCCAG` is reported as -0.147.
The E-score of `ACAAGTCT` is reported as 0.143.
With `ATAGTTCA` the E-score was 0.216.
The E-score of `ATAAGTAC` is reported as 0.285.
`AACATAAA` has an E-score of 0.307.
For `AATTAGGT`, the E-score was 0.244.
`CCCCGTGA` has an E-score of -0.213.
For `ATCAGCAA`, the E-score was -0.0395.
The E-score of `ACTTGAAA` is reported as 0.17.
With `GCTAAGAA` the E-score was -0.152.
`ACGGGCGC` gave an E-score of -0.218.

Block 3 — method: protein-binding microarray; molecule type: double-stranded DNA, one strand shown; sample: in vitro; concentration: 940 nM top; setting: 60-bp whole probe; together with: salmon DNA 0.4 mg/ml; reference: random background probes; direction: higher = stronger binding; all sequences stand within: GCCTAGCAC … GTCTTGATTCGCTTGACGCTGCTG
Target: Interferon regulatory factor 5, full length, phosphomimetic (IRF5, Homo sapiens, UniProt Q13568-2, residues 1-514, S451D/S453D/S456D/S462D)
`TTAGGATTGGGGACTGGGTTAGTGCTA` — result for “fitted relative affinity”: 0.00691 z-score.
For `TTAGATATCGGGACTGCATTAGTGCTA`, “fitted relative affinity” read 0.0601 z-score.
For `TCACTCTTCCTTTACTTACTGTGCTAG`, “fitted relative affinity” read 1.92 z-score.
Under “fitted relative affinity”, `TTAGATTTCGGGACTGGCTTAGTGCTA` is recorded as 0.332 z-score.
`GACGGATTCGGGACTGGGGACGTGCTA`: “fitted relative affinity” -0.111 z-score.
`TTAGGTATCGGGTTTCCGTTAGTGCTA` — result for “fitted relative affinity”: 6.13 z-score.
`AAATTTTGATGAACTTAAGCGTGCTAG`: “fitted relative affinity” -0.448 z-score.
`TTAGAACTGAGGTTTCGATTAGTGCTA` — result for “fitted relative affinity”: 4.28 z-score.
`TTTGGTCTCCTTCTCCTTTAGTGCTAG` — result for “fitted relative affinity”: 1.14 z-score.
`GACGGTCTCCTGTTCCTGACGTGCTAG`: “fitted relative affinity” 0.156 z-score.
`GTGCCTTTTTTTTTTTTTCTGTGCTAG`: “fitted relative affinity” 1.08 z-score.
Under “fitted relative affinity”, `TTAGGTTTCGGTCTCGGGTAGTGCTAG` is recorded as 13.8 z-score.
Under “fitted relative affinity”, `TCAGGACTGGGGTATCGGTTAGTGCTA` is recorded as 2.84 z-score.
For `GGCCCTATAGGTTTCTATATGTGCTAG`, “fitted relative affinity” read 1.58 z-score.
For `TTAGGTATCGACTTTCGGTTTGTGCTA`, “fitted relative affinity” read 6.56 z-score.
Under “fitted relative affinity”, `GACGGACTGCTTATCCTAACGTGCTAG` is recorded as -0.194 z-score.
`GCCGGTCTCCTTCTCCTGACGTGCTAG`: “fitted relative affinity” 0.504 z-score.
`TCTGGTTCCCATTCCAGGGTGTGCTAG`: “fitted relative affinity” 0.58 z-score.
`TTACGTATCGGACTGGGTTAGTGCTAG` — result for “fitted relative affinity”: 2.11 z-score.

Block 4 — method: DHFR PCA, deep sequencing; sample: yeast; together with: (+)-ABA 0.11 µM; reference: wild-type fitted maximum; direction: higher = stronger binding
Target: ABI1, truncated, D143A, DHFR fusion (Arabidopsis thaliana)
Setting: methotrexate growth selection, single substitutions
Starting sequence: PYL1, truncated, DHFR fusion (Arabidopsis thaliana); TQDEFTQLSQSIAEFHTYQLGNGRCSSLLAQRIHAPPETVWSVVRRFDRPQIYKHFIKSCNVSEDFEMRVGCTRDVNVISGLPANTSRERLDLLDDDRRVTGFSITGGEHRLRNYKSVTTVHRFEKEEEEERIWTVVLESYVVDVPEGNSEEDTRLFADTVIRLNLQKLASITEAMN; partner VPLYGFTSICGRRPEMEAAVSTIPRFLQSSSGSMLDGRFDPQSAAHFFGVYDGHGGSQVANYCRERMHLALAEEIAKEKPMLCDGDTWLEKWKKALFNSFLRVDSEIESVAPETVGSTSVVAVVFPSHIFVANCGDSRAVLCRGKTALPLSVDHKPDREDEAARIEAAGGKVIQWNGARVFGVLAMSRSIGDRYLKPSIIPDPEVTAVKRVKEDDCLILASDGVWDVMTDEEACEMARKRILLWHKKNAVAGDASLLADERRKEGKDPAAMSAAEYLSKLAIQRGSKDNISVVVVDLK
For `E38K`, “relative binding score” read 6.41%.
For `E130P`, “relative binding score” read 63.6%.
`T39H` — result for “relative binding score”: 12.1%.
`T154G` — result for “relative binding score”: -1.19%.
Under “relative binding score”, `V44I` is recorded as 11.1%.
For `D95Q`, “relative binding score” read 0.789%.
`V121Q` — result for “relative binding score”: 3.47%.
Under “relative binding score”, `E139F` is recorded as -8.41%.
`N114D` — result for “relative binding score”: 12.1%.
`Q167I`: “relative binding score” 4.61%.
`W41I`: “relative binding score” -4.16%.
For `A13R`, “relative binding score” read 37.9%.
Under “relative binding score”, `E64G` is recorded as 20.2%.
`D95T` — result for “relative binding score”: -3.54%.
`R123G`: “relative binding score” 77.9%.
Under “relative binding score”, `A84H` is recorded as 64.9%.
`D95C`: “relative binding score” -2.18%.
Under “relative binding score”, `S150K` is recorded as 11.3%.
For `L93M`, “relative binding score” read 31.6%.

Block 5 — method: protein binding microarray; molecule type: double-stranded DNA, one strand shown; sample: in vitro; concentration: not given; reference: not given; direction: higher = stronger binding
Target: Histone acetyltransferase KAT6A, winged helix 2, GST fusion (KAT6A, Homo sapiens, UniProt Q92794, residues 85-181)
Setting: 8-mer, flanks averaged, mean of 2 arrays, mostly near background
Target sequence (chain): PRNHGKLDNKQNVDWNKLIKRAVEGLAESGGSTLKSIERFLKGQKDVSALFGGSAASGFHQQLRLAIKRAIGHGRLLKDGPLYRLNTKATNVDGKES
`GGGCCGGA` gave an E-score of 0.135.
For `CCAATATC`, the E-score was -0.00257.
The E-score of `GGCGGGGA` is reported as 0.305.
With `AAAAGTAG` the E-score was -0.0972.
The E-score of `GGTAGGCA` is reported as -0.00166.
The E-score of `ATCTGATA` is reported as -0.011.
With `AATTGCAC` the E-score was 0.0846.
`GAGTAGAA` has an E-score of -0.0602.
With `AGGACTTA` the E-score was -0.127.
`TAGCCAAA` gave an E-score of 0.0423.
`ACGCCCGC` gave an E-score of 0.092.
The E-score of `ACCTTTAC` is reported as -0.0615.
With `AGAAGGTC` the E-score was -0.0762.
`AAGATTGA` gave an E-score of -0.0671.
For `ACGCCAGT`, the E-score was 0.0984.
`AACAATTG` has an E-score of -0.0302.
`AATGGATG` gave an E-score of -0.144.
With `GAGGGGCC` the E-score was 0.0647.
`AGGTGTTC` has an E-score of -0.107.
With `CATTCACG` the E-score was -0.00962.
The E-score of `AGATCCTG` is reported as -0.0204.

For quick reference, copied from above (block 4):
For `E38K`, “relative binding score” read 6.41%.
For `E130P`, “relative binding score” read 63.6%.
`T39H` — result for “relative binding score”: 12.1%.
`T154G` — result for “relative binding score”: -1.19%.
Under “relative binding score”, `V44I` is recorded as 11.1%.
For `D95Q`, “relative binding score” read 0.789%.
`V121Q` — result for “relative binding score”: 3.47%.
Under “relative binding score”, `E139F` is recorded as -8.41%.
`N114D` — result for “relative binding score”: 12.1%.
`Q167I`: “relative binding score” 4.61%.
`W41I`: “relative binding score” -4.16%.
